Published values of several laboratories.
Numbered parts are unrelated; each lists some results of a single study. Changes are numbered by the printed parent chain.

Series 1
Target: CCNF, cyclin fold, Cln2 fusion (human)
Technique: yeast growth competition, sequencing
Sample: yeast
Notes: strong parent motif
Reference: not given
Direction: higher = stronger binding
Measurement: normalised enrichment score
Starting sequence: E2F1 docking peptide (human); PPVKRRLDFETDH; partner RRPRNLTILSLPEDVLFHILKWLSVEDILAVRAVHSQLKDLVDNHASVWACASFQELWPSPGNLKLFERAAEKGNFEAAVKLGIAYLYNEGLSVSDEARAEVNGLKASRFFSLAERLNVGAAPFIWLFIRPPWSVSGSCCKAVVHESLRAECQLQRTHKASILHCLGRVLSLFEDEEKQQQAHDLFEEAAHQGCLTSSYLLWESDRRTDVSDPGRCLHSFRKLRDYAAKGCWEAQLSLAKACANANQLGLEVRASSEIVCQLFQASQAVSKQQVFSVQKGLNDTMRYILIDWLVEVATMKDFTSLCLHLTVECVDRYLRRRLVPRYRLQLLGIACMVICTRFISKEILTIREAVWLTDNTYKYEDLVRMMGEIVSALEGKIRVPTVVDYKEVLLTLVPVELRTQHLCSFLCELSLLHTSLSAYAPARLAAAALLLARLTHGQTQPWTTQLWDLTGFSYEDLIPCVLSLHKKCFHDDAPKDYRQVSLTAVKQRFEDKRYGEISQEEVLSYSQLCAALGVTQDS
PPVKCRLDFETDH [R5C]: 2.98
PAVKRRLDFETDH [P2A]: 7.82
PPVKRRLQFETDH [D8Q]: 7.46
PPVKRPLDFETDH [R6P]: 4.41
PPVKRRNDFETDH [L7N]: 0.182
PPVKRRRDFETDH [L7R]: 0.205
PPVKPRLDFETDH [R5P]: -0.501
PPVKRRLDFEYDH [T11Y]: 7.28
PPVKRRLDFITDH [E10I]: 7.74
PPVKRRLDFWTDH [E10W]: 8.93
PGVKRRLDFETDH [P2G]: 8.27
PPVKRRLDFATDH [E10A]: 7.62
PPVKRSLDFETDH [R6S]: 7.1
PPVKRKLDFETDH [R6K]: 6.81
PPVKRFLDFETDH [R6F]: 6.75
PPVFRRLDFETDH [K4F]: 5.96
PLVKRRLDFETDH [P2L]: 7.87
PPVKRRLDVETDH [F9V]: 3.77

Series 2
Target: Centromere-binding protein 1, full length, N-terminal tag (CBF1, Saccharomyces cerevisiae, UniProt P17106, residues 1-351)
Sequence of UniProt P17106 (whole entry, looked up): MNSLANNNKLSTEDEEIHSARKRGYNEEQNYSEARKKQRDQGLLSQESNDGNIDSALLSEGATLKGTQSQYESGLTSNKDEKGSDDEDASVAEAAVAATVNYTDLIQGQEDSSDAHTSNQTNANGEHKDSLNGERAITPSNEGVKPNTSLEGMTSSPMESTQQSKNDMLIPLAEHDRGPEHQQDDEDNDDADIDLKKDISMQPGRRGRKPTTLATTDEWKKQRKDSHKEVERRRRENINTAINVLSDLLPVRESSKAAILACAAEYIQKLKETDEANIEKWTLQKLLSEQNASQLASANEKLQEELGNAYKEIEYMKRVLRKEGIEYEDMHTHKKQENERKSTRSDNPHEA
Technique: protein-binding microarray
Form: double-stranded DNA, one strand shown
Sample: in vitro
Concentration: 0.8 µM
Notes: whole 60-bp probe, no competitor
Direction: higher = stronger binding
Measurement: fluorescence intensity
Shared flanks, not repeated: … GTCTTGATTCGCTTGACGCTGCTG
GAAGACCACCTTGCGCACGGGAACGCCGCACTGTAG: 667 a.u.
CTACGCCAGATTCATCTCCTGTTGGAGTGTTGATTC: 493 a.u.
CTAGCTTATCGCGGTCATGTGACTAATAATTGATTC: 16600 a.u.
GAATGTCGGAATCAGCACGCGCAAGAACCAAATTAG: 884 a.u.
GAATACAAAAAAAGGCATGTGGGTGAATTACAATAG: 661 a.u.
CTAATAAACTTCAATCAGGTGATTTTTTTTTTGTTC: 3430 a.u.
CTATTTCTTTCAGGTCACCTCTCAGCCGTCACGTTC: 639 a.u.
CTAAGATCTGAAAGTCACATATAAGAGCAATATTTC: 558 a.u.
CTATGTTATATTGCTCACGTAACAACTTCTATGTTC: 593 a.u.
CTAGTTGGTTTGCATCTGATGTTCCTTAAAGATTTC: 556 a.u.
CTATGGCGGTTTCACCAGACAACATAACACAGTTTC: 500 a.u.
CTAATAAAGAAGAGAAACGTCACCTAAAAAGTTTTC: 480 a.u.
CTATCATAATAAAGTGTGATGATGGAGGCAATGTTC: 559 a.u.
CTATTTTGGAGTTGTCACGGTATAGATATGTCTTTC: 703 a.u.
GAACCCGCACCCCGTAGTCACGTTCGCCTTCGCTAG: 2300 a.u.
GAATCAACTATTAATGGGGTGACTACAGTGTATTAG: 541 a.u.

Series 3
Target: Histone acetyltransferase KAT6A, winged helix 2, GST fusion (KAT6A, Homo sapiens, UniProt Q92794, residues 85-181)
Technique: protein binding microarray
Form: double-stranded DNA, one strand shown
Sample: in vitro
Concentration: not given
Notes: 8-mer, flanks averaged, mean of 2 arrays, mostly near background
Reference: not given
Direction: higher = stronger binding
Measurement: E-score
Construct (chain): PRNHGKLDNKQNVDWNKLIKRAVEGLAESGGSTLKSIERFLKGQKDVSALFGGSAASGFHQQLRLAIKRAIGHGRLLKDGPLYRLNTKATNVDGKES
ATGCGTAC: -0.0573
GAGACTTA: -0.113
CGAAGCCA: 0.182
AAATTCGT: 0.0637
GCAACGGA: 0.205
CATATTTC: -0.136
TCATATCA: -0.103
TATCTGAA: 0.137
ATTATAGG: -0.0745
AAACGACA: 0.0556
TATCCGGA: 0.148
GGTACTCA: -0.0553
TAAGTAAA: -0.186
AATTACGA: -0.0355
AGGAAATC: 0.103
CTACAACA: -0.0201
AACGTTAC: -0.168
ACGCCTCA: -0.0854
GGTTTAAA: 0.0643

Series 4
Target: RING finger protein unkempt homolog, zinc fingers 1-6, GST-SBP tag (UNK, Homo sapiens, UniProt Q9C0B0, residues 30-357)
Sequence of UniProt Q9C0B0 (30-357, looked up): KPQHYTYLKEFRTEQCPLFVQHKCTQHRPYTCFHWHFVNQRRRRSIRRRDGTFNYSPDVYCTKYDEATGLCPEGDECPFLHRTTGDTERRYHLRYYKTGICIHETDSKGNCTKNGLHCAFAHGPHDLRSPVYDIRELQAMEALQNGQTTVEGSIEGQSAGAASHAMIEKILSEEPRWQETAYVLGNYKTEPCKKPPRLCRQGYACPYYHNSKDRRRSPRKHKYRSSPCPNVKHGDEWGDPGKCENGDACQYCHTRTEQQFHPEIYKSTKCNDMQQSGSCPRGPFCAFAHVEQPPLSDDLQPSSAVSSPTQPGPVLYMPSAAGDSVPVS
Technique: RNA Bind-n-Seq
Form: RNA
Sample: in vitro
Concentration: not given
Notes: RNA with constant flanks, ends assumed
Reference: input RNA pool
Direction: higher = stronger binding
Measurement: bound/input enrichment
Shared flanks, not repeated: GGGAGUUCUACAGUCCGACGAUC … CAACAGAGGAUUGAGCAUCA
AUCUACGAAGAACUUGGCUAUGGCUGAUCUUUUUUAAAUUUAACUUUCUGAUGGACCCUGCCGUUUCCAGUUAAGUGCAGAUUCCUUACAGACAUAUAGAACAGCGCAUUCUUCUGUAGA: 1.13 ratio
GACACUCUCAUCAAGACCUUUGUGCGCUCGCAGACCACCCAAGUGCAUGAUGGGAAAGGUAUCCGAUUUACUGCUAAUGAGGACAUUCGUCCGGAAAAGGGGUCUGGUGUGGACGAUCCU: 0.196 ratio
CUUCUGAAGGCAGCUGCAGGUCCAUCCCAUUGACAUAGCUGCUAUGGCACAGGAGCUUUGCCGCUGUGGAACCAACACUGCUUUUGCAUACUGUGUAGAAGAAUUCUUUAGGAGUGGGGA: 0.471 ratio
UCUUGUUCAUCCCCUUGUAUUGUUUCUCCUUAUUGCUACAGUUAAUAGACAAAAAGGUAACUCCGACCCUUUUUUUUUUUUGGUUUGGCUUGAUAUUGUUUAGUAAAUGGCUAUACAAGU: 1.53 ratio
AGUGAAAGACUCUUUUAUUAUAUUGCUGUCUCUUUGUUACCCCAUGAGACUUUGCCCGAGAUUGAAAAUGCAGUGGAGAGCGGCCGGGCACUGCUACCCAUUCUCCAGUGGCACAAGCAC: 0.612 ratio
UUUAAAGGUUUUUUUUUUUUAAUUUAAUUUUUCCUUUUGGGGGUAAAGUUUGCUCUACCAAACCGUGAUUGUAACAAAUUGAUCUGUUUUGGAUGUUGCUAUAGUGACAUGCAGUUAUAU: 1.14 ratio
AGCAAAGAAGAAGUUAUCCGCUUUUUGGAAAGUACCCCGGCCAGCCUGAAUCUGGAAGACACCGAAGACCUGUUCUCUUUGGCUCAGUAUUACUGUAGUAAGACGCCAGCUUCUUUUAGG: 0.229 ratio
GAAGAAGCCCAUAAACUACCAGUAAAACACUUUACUAAUCCAUAUUGUAACAUCUACUUGAACCGCGUCCAAGUAGCAAAAACUCAUGCAAGGGAGGGGCAAAACCCAGUAUGGUCAGAG: 0.301 ratio

A few entries again (series 3):
AAACGACA: 0.0556
TATCCGGA: 0.148
GGTACTCA: -0.0553
TAAGTAAA: -0.186
AATTACGA: -0.0355
AGGAAATC: 0.103
